# Results collected from several papers.
# Compare with care: the assays were run in different laboratories. ± gives the spread as reported.
# Target: Induced myeloid leukemia cell differentiation protein Mcl-1 (MCL1, Homo sapiens, UniProt Q07820)
SMILES,effect on,technique,pH,temperature,with,quantity,value
CC(C)Oc1cc(NC(=O)[C@H](Cc2c[nH]c3ccccc23)NC(=O)c2ccc(N)c(OCc3ccccc3)c2)ccc1C(=O)NCC(=O)O,,fluorescence anisotropy competition,pH 7.50,,FITC-NOXA B peptide,IC50,24100 ± 1400 nM
CC[C@H](C)[C@@H]1NC(=O)[C@H](CCCNC(=N)N)NC(=O)[C@H](CCCNC(=N)N)NC(=O)[C@H](CC(C)C)NC(=O)[C@@H](NC(=O)[C@H](C)NC(=O)[C@H](C)NC(C)=O)CSC/C=C/c2ccc(cc2)/C=C/CSC[C@@H](C(=O)N[C@H](C(=O)N[C@@H](CC(N)=O)C(=O)N[C@@H](CC(C)C)C(=O)N[C@@H](CCCNC(=N)N)C(=O)N[C@@H](CCC(N)=O)C(=O)N[C@@H](CCCCN)C(=O)N[C@@H](CC(C)C)C(=O)N[C@@H](CC(C)C)C(=O)N[C@@H](CC(N)=O)C(N)=O)C(C)C)NC(=O)[C@H](CC(=O)O)NC(=O)CNC1=O,ligand displacement,FP,,,,IC50,49 nM
CC(C)Oc1cc(C(=O)NCC(=O)O)ccc1NC(=O)[C@H](Cc1ccccc1)NC(=O)c1ccc(N)c(OCc2ccccc2)c1,,fluorescence anisotropy competition,pH 7.50,,FITC-NOXA B peptide,IC50,> 100000 nM
CC[C@H](C)[C@@H]1NC(=O)[C@H](CCCNC(=N)N)NC(=O)[C@H](CCCNC(=N)N)NC(=O)[C@H](CC(C)C)NC(=O)[C@@H](NC(=O)[C@H](C)NC(=O)[C@H](C)NC(C)=O)CSCc2ccc(cc2)-c2ccc(cc2)CSC[C@@H](C(=O)N[C@H](C(=O)N[C@@H](CC(N)=O)C(=O)N[C@@H](CC(C)C)C(=O)N[C@@H](CCCNC(=N)N)C(=O)N[C@@H](CCC(N)=O)C(=O)N[C@@H](CCCCN)C(=O)N[C@@H](CC(C)C)C(=O)N[C@@H](CC(C)C)C(=O)N[C@@H](CC(N)=O)C(N)=O)C(C)C)NC(=O)[C@H](CC(=O)O)NC(=O)CNC1=O,ligand displacement,FP,,,,IC50,71 nM
CC[C@H](C)[C@H](NC(=O)[C@H](Cc1c[nH]c2ccccc12)NC(=O)[C@@H](NC(=O)[C@H](CCC(=O)O)NC(=O)[C@@H]1CCCN1C(=O)[C@H](CCCNC(=N)N)NC(C)=O)[C@@H](C)CC)C(=O)N[C@@H](C)C(=O)N[C@@H](CCC(N)=O)C(=O)N[C@@H](CCC(=O)O)C(=O)N[C@@H](CC(C)C)C(=O)N[C@@H](CCCNC(=N)N)C(=O)N[C@@H](CCCNC(=N)N)C(=O)N[C@@H](C)C(=O)NCC(=O)N[C@@H](CCCCN)C(=O)N[C@H](C(=O)N[C@@H](CC(C)C)C(=O)N[C@@H](CC(N)=O)C(=O)N[C@@H](C)C(=O)N[C@@H](Cc1ccc(O)cc1)C(=O)N[C@@H](Cc1ccc(O)cc1)C(=O)N[C@@H](C)C(=O)N[C@@H](CCCNC(=N)N)C(N)=O)C(C)C,binding,fluorescence polarization,pH 7.8,37 °C,,Kd,> 1000 nM
O=C(O)c1csc(C2COc3ccccc3O2)n1 (stereo not drawn),ligand displacement,FP,,,,Ki,40000 nM
CC[C@H](C)[C@H](NC(C)=O)C(=O)N[C@H](CC(=O)N[C@H](C(=O)N[C@@H](C)C(=O)N[C@@H](CCC(N)=O)C(=O)N[C@@H](CCC(=O)O)CC(=O)N[C@@H](CC(C)C)C(=O)N[C@@H](CCCNC(=N)N)C(=O)N[C@@H](CCCNC(=N)N)C(=O)N[C@H](CC(=O)NCC(=O)N[C@@H](CC(=O)O)C(=O)N[C@@H](CCC(=O)O)C(=O)N[C@H](CC(=O)N[C@@H](CC(N)=O)C(=O)N[C@@H](C)C(=O)N[C@@H](Cc1ccc(O)cc1)C(=O)N[C@H](CC(N)=O)Cc1ccc(O)cc1)Cc1ccccc1)[C@@H](C)CC)[C@@H](C)CC)Cc1c[nH]c2ccccc12,,competition SPR,pH 7.4,,BimBH3 peptide,IC50,109 ± 1 nM
CC[C@H](C)[C@@H]1NC(=O)[C@H](CCCNC(=N)N)NC(=O)[C@H](CCCNC(=N)N)NC(=O)[C@H](CC(C)C)NC(=O)[C@@H](NC(=O)[C@H](C)NC(=O)[C@H](C)NC(C)=O)CSCc2ccc(c(OC)c2)-c2ccc(cc2OC)CSC[C@@H](C(=O)N[C@H](C(=O)N[C@@H](CC(N)=O)C(=O)N[C@@H](CC(C)C)C(=O)N[C@@H](CCCNC(=N)N)C(=O)N[C@@H](CCC(N)=O)C(=O)N[C@@H](CCCCN)C(=O)N[C@@H](CC(C)C)C(=O)N[C@@H](CC(C)C)C(=O)N[C@@H](CC(N)=O)C(N)=O)C(C)C)NC(=O)[C@H](CC(=O)O)NC(=O)CNC1=O,ligand displacement,FP,,,,IC50,183 nM
CC[C@H](C)[C@H](NC(C)=O)C(=O)N[C@H](CC(=O)N[C@H](C(=O)N[C@@H](C)C(=O)N[C@@H](CCC(N)=O)C(=O)N[C@@H](CCC(=O)O)CC(=O)N[C@@H](CC(C)C)C(=O)N[C@@H](CCCNC(=N)N)C(=O)N[C@@H](CCCNC(=N)N)CC(=O)N[C@H](C(=O)NCC(=O)N[C@@H](CC(=O)O)C(=O)N[C@@H](CCC(=O)O)CC(=O)N[C@@H](Cc1ccccc1)C(=O)N[C@@H](CC(N)=O)C(=O)N[C@@H](C)CC(=O)N[C@@H](Cc1ccc(O)cc1)C(=O)N[C@@H](Cc1ccc(O)cc1)C(N)=O)[C@@H](C)CC)[C@@H](C)CC)Cc1c[nH]c2ccccc12,,competition SPR,pH 7.4,,BimBH3 peptide,IC50,70 ± 7 nM
CC1=C(C2=C(C)C(=O)c3c(cc(O)c(O)c3C(C)C)C2=O)C(=O)c2cc(O)c(O)c(C(C)C)c2C1=O (racemic),ligand displacement,FP,,,,IC50,72 nM
CC1(C)CCC(CN2CCN(c3ccc(C(=O)NS(=O)(=O)c4ccc(NCC5COCCO5)c([N+](=O)[O-])c4)c(N4CCCOc5nc6[nH]ccc6cc54)c3)CC2)=C(c2ccc(Cl)cc2)C1 (stereo not drawn),ligand displacement,TR-FRET,,,,IC50,> 1000 nM
CC[C@H](C)[C@H](NC(=O)[C@H](CCCNC(=N)N)NC(=O)[C@H](CO)NC(=O)[C@H](CC(C)C)NC(=O)[C@H](CCC(=O)O)NC(=O)[C@H](CCC(N)=O)NC(=O)[C@H](C)NC(=O)[C@@H](NC(=O)[C@H](Cc1c[nH]c2ccccc12)NC(=O)[C@@H](NC(=O)[C@H](CCC(=O)O)NC(=O)[C@@H]1CCCN1C(=O)[C@H](CCCNC(=N)N)NC(=O)c1ccc2c(c1)C(=O)OC21c2ccc(O)cc2Oc2cc(O)ccc21)[C@@H](C)CC)[C@@H](C)CC)C(=O)NCC(=O)N[C@@H](CC(=O)O)C(=O)N[C@@H](CCC(=O)O)C(=O)N[C@@H](Cc1ccccc1)C(=O)N[C@@H](CC(N)=O)C(=O)N[C@@H](C)C(=O)N[C@@H](Cc1ccc(O)cc1)C(=O)N[C@@H](Cc1ccc(O)cc1)C(=O)N[C@@H](C)C(=O)N[C@@H](CCCNC(=N)N)C(N)=O,binding,fluorescence anisotropy,,,,Kd,< 1 nM
CC1=C(C2=C(C)C(=O)c3c(cc(O)c(O)c3Cc3ccccc3)C2=O)C(=O)c2cc(O)c(O)c(Cc3ccccc3)c2C1=O (racemic),ligand displacement,FP,,,,IC50,53 nM
Cc1cccc2c1O[C@@H](c1nc(C(=O)O)cs1)CN2Cc1ccccc1,ligand displacement,FP,,,,Ki,47000 nM
CC(C)Oc1cc(NC(=O)[C@@H](Cc2ccccc2)NC(=O)c2ccc(N)c(OCc3ccccc3)c2)ccc1C(=O)NCC(=O)O,,fluorescence anisotropy competition,pH 7.50,,FITC-NOXA B peptide,IC50,27100 ± 1100 nM

# Repeated from above:
SMILES,effect on,technique,pH,temperature,with,quantity,value
CC[C@H](C)[C@H](NC(=O)[C@H](Cc1c[nH]c2ccccc12)NC(=O)[C@@H](NC(=O)[C@H](CCC(=O)O)NC(=O)[C@@H]1CCCN1C(=O)[C@H](CCCNC(=N)N)NC(C)=O)[C@@H](C)CC)C(=O)N[C@@H](C)C(=O)N[C@@H](CCC(N)=O)C(=O)N[C@@H](CCC(=O)O)C(=O)N[C@@H](CC(C)C)C(=O)N[C@@H](CCCNC(=N)N)C(=O)N[C@@H](CCCNC(=N)N)C(=O)N[C@@H](C)C(=O)NCC(=O)N[C@@H](CCCCN)C(=O)N[C@H](C(=O)N[C@@H](CC(C)C)C(=O)N[C@@H](CC(N)=O)C(=O)N[C@@H](C)C(=O)N[C@@H](Cc1ccc(O)cc1)C(=O)N[C@@H](Cc1ccc(O)cc1)C(=O)N[C@@H](C)C(=O)N[C@@H](CCCNC(=N)N)C(N)=O)C(C)C,binding,fluorescence polarization,pH 7.8,37 °C,,Kd,> 1000 nM
CC1(C)CCC(CN2CCN(c3ccc(C(=O)NS(=O)(=O)c4ccc(NCC5COCCO5)c([N+](=O)[O-])c4)c(N4CCCOc5nc6[nH]ccc6cc54)c3)CC2)=C(c2ccc(Cl)cc2)C1 (stereo not drawn),ligand displacement,TR-FRET,,,,IC50,> 1000 nM
